Published values from different studies.
Compare with care: the assays were run in different laboratories.

SMILES	organism	assay	system	conditions	MIC
C=CCO/N=C(\C(=O)N[C@@H]1C(=O)N(OS(=O)(=O)O)C1(C)C)c1nsc(N)n1	Providencia rettgeri	agar dilution	ATCC 31052, susceptible	–	≤ 0.03 µg/mL
CC/C(O)=C1/C(=O)N2[C@@H](c3ccccc3)SC[C@]2(C(=O)OC2CCCCC2)C1=O	Streptomyces	bacterial growth, broth dilution	Mueller-Hinton broth	24 h, 35 °C	31.3 µg/mL
C#CCO/N=C(\C(=O)N[C@@H]1C(=O)N(OS(=O)(=O)O)C1(C)C)c1csc(N)n1	Citrobacter freundii	agar dilution	ATCC 43864, susceptible	–	0.5 µg/mL
CC/C(O)=C1/C(=O)N2[C@@H](c3ccccc3)SC[C@]2(C(=O)OCc2ccc(Br)cc2)C1=O	Streptomyces	bacterial growth, broth dilution	Mueller-Hinton broth	24 h, 35 °C	15.6 µg/mL
C=CCO/N=C(\C(=O)N[C@@H]1C(=O)N(OS(=O)(=O)O)C1(C)C)c1csc(N)n1	Providencia rettgeri	agar dilution	ATCC 31052, susceptible	–	≤ 0.03 µg/mL
Cc1c(CN(C)C(=O)/C=C/c2cnc3c(c2)CC(N)C(=O)N3)oc2ccccc12 (stereo not shown)	Acinetobacter baumannii	broth microdilution	AR-0313	–	32 µg/mL
CC1(C)[C@H](NC(=O)/C(=N\OCc2c(Cl)cccc2Cl)c2nsc(N)n2)C(=O)N1OS(=O)(=O)O	Citrobacter freundii	agar dilution	ATCC 43864, susceptible	–	4 µg/mL
COc1c(NC(=O)c2ccc(NC(=O)[C@H](Cc3c[nH]nn3)NC(=O)c3ccc(NC(=O)/C(C)=C/c4ccc(O)cc4)cc3)cc2)ccc(C(=O)Nc2ccc(C(=O)O)cc2)c1O	Mycolicibacterium phlei	–	DSM 750	–	1 µg/mL
COC1C=COC2(C)Oc3c(C)c(O)c4c(c3C2=O)C2=NC3(CCN(CC(C)C)CC3)NC2=C(NC(=O)C(C)=CC=CC(C)C(O)C(C)C(O)C(C)C(OC(=O)c2cccnc2)C1C)C4=O (stereo not shown)	Mycobacteroides abscessus	broth microdilution	ATCC 19977	–	0.02 µM
O=C1C(=C(O)NC23CC4CC(CC(C4)C2)C3)C(=O)C2(C(=O)OCc3ccccc3)CSC(c3ccccc3)N12 (stereo not shown)	Streptomyces	bacterial growth, broth dilution	Mueller-Hinton broth	24 h, 35 °C	31.3 µg/mL
N=C(N)NCCC[C@@H]1NC(=O)[C@H](CCCNC(=N)N)NC(=O)[C@@H](CCCNC(=N)N)NC(=O)[C@@H](CCCNC(=N)N)NC(=O)[C@@H](C(c2ccccc2)c2ccccc2)NC(=O)[C@@H](Cc2c[nH]c3ccccc23)NC(=O)[C@@H](C(c2ccccc2)c2ccccc2)NC1=O	Candida albicans	fungal growth	–	–	16 µg/mL
CC1(C)[C@H](NC(=O)/C(=N\OCC(=O)N2CCC[C@@H]2C(=O)O)c2nsc(N)n2)C(=O)N1OS(=O)(=O)O	Citrobacter freundii	agar dilution	ATCC 43864, susceptible	–	0.5 µg/mL
N=C(N)NCCC[C@@H]1NC(=O)[C@@H](CCCNC(=N)N)NC(=O)[C@H](CCCNC(=N)N)NC(=O)[C@@H](C(c2ccccc2)c2ccccc2)NC(=O)[C@@H](C(c2ccccc2)c2ccccc2)NC(=O)[C@@H](C(c2ccccc2)c2ccccc2)NC(=O)[C@@H](CCCNC(=N)N)NC1=O	Candida albicans	–	SC5314	–	32 µg/mL
O=C1C(=C(O)C=Cc2ccccc2)C(=O)C2(C(=O)OCc3ccccc3)CSC(c3ccccc3)N12 (stereo not shown)	Streptomyces	bacterial growth, broth dilution	Mueller-Hinton broth	24 h, 35 °C	7.81 µg/mL
CC(C)(O/N=C(\C(=O)N[C@@H]1C(=O)N(OS(=O)(=O)O)C1(C)C)c1nsc(N)n1)C(=O)O	Citrobacter freundii	agar dilution	ATCC 43864, susceptible	–	32 µg/mL
O=C1/C(=C(\O)C2CCCCC2)C(=O)[C@@]2(C(=O)OCc3ccc(Br)cc3)CS[C@H](c3ccccc3)N12	Streptomyces	bacterial growth, broth dilution	Mueller-Hinton broth	24 h, 35 °C	0.49 µg/mL
CNC(C)C1CCC(N)C(OC2C(N)CC(N)C(OC3OCC(C)(O)C(NC)C3O)C2O)O1 (stereo not shown)	Salmonella enterica serovar Typhimurium	–	14028, Mueller-Hinton broth	18 to 20 h, 37 °C	2 µM
O=C1C(=C(O)NC2CCCCC2)C(=O)C2(C(=O)OCc3ccccc3)CSC(c3ccccc3)N12 (stereo not shown)	Streptomyces	bacterial growth, broth dilution	Mueller-Hinton broth	24 h, 35 °C	15.6 µg/mL
CN[C@H](CC(C)C)C(=O)N[C@H]1C(=O)N[C@@H](CC(N)=O)C(=O)N[C@H]2C(=O)N[C@H]3C(=O)N[C@H](C(=O)N[C@H](C(=O)O)c4cc(O)cc(O)c4-c4cc3ccc4O)[C@H](O)c3ccc(c(Cl)c3)Oc3cc2cc(c3O[C@@H]2O[C@H](CO)[C@@H](O)[C@H](O)[C@H]2O[C@H]2C[C@](C)(N)[C@H](O)[C@H](C)O2)Oc2ccc(cc2Cl)[C@H]1O	Gram-positive bacteria	–	seven strains	–	0.5 µM
